Experimental data pooled from the literature.
Numbered parts are unrelated; each lists some results of a single study.

Set 1
Target: Histone acetyltransferase KAT6A, winged helix 1, GST fusion (KAT6A, Homo sapiens, UniProt Q92794, residues 1-85)
Method: protein binding microarray
Form: double-stranded DNA, one strand shown
Sample: in vitro
Tested at: not given
Notes: 8-mer, flanks averaged, mean of 2 arrays, mostly near background
Baseline: not given
Direction: higher = stronger binding
Target sequence (chain): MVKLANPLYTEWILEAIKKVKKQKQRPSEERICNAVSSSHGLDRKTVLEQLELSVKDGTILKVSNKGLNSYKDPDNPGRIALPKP
Sequence | E-score
AAAAGACC | -0.105
ACGGGAGC | 0.229
ATATTAGG | -0.18
GAAGAACC | -0.0677
CTGAGTTA | -0.12
CGATGGAG | 0.146
CTCTTTAC | 0.0526
AGGATGGG | -0.269

Set 2
Target: Replicase polyprotein 1ab, polymerase (rep, Severe acute respiratory syndrome coronavirus 2, UniProt P0DTD1)
Read-out: enzyme activity
Mode: inhibitor
Tested at: 20 µM
SMILES | inhibition [%]
CC1(C)S[C@@H]2[C@H](NC(=O)Cc3ccccc3)C(=O)N2[C@H]1C(=O)O | 18.2
CCc1cc2c(s1)-n1c(C)nnc1CN=C2c1ccccc1Cl | -3.27
O=C(NC1CCN(CCCCC2(C(=O)NCC(F)(F)F)c3ccccc3-c3ccccc32)CC1)c1ccccc1-c1ccc(C(F)(F)F)cc1 | -0.91
O=C(O)CC(=O)C(=O)O | 3.39
CN[C@H]1C[C@@H](N)[C@H](O)[C@@H](O[C@@H]2O[C@H](CO)[C@H](O)[C@@H]3OC4(O[C@H]23)O[C@H]([C@@H](N)CO)[C@H](O)[C@H](O)[C@H]4O)[C@@H]1O (stereo partly shown) | -2.52
NC1=NCN([C@H]2C[C@H](O)[C@@H](CO)O2)C(=O)N1 | 3.13
COCC(=O)Nc1c(I)c(C(=O)NCC(O)CO)c(I)c(C(=O)N(C)CC(O)CO)c1I (mixture of isomers) | -1.24
CN1CCCCC1Cn1cc(C(=O)c2cc([N+](=O)[O-])ccc2I)c2ccccc21 (stereo not shown) | -1.63
Cc1c(C(=O)NN2CCCCC2)nn(-c2ccc(Cl)cc2Cl)c1-c1ccc(Cl)cc1 | 2.94
Nc1nc(=O)c2c([nH]1)NC[C@H](CNc1ccc(C(=O)N[C@@H](CCC(=O)O)C(=O)O)cc1)N2C=O | -2.44
O=S(=O)(O)CCS | 25.4
CC(C)N(CCCNC(=O)Nc1ccc(C(C)(C)C)cc1)C[C@H]1O[C@@H](n2ccc3c(N)ncnc32)[C@H](O)[C@@H]1O | 1.78
C[C@](O)(COc1ccc(C#N)cc1)C(=O)Nc1ccc(C#N)c(C(F)(F)F)c1 | -4.84
O=C1NCN(c2ccccc2)C12CCN(CCCC(c1ccc(F)cc1)c1ccc(F)cc1)CC2 | 0.32
CC(=O)O[C@]1(C(C)=O)CC[C@H]2[C@@H]3C=C(C)C4=CC(=O)CC[C@@H]4[C@H]3CC[C@@]21C | -2.04
Cc1c(Nc2ncccc2C(=O)O)cccc1C(F)(F)F | -0.36
CC(C)=CCC/C(C)=C/CC/C(C)=C/C=C/C(C)=C/C(=O)O | 2.35
O=C1NC(c2ccccc2)(c2ccccc2)C(=O)N1COP(=O)(O)O | -4.69
O=C(C(c1ccccc1)c1ccccc1)N1CCN(CC(O)COc2cccc3ncccc23)CC1 (stereo not shown) | -3.89
C/C(O)=C(\C#N)C(=O)Nc1cc(Br)ccc1Br | 35.3
CC(=O)NO | 4.3
CC1=C[C@H](O)CC(C)(C)[C@H]1/C=C/C(C)=C/C=C/C(C)=C/C=C/C=C(C)/C=C/C=C(C)/C=C/C1=C(C)C[C@@H](O)CC1(C)C | 0.4
NS(=O)(=O)NCc1csc2ccccc12 | 0.21
Cc1cccc(C)c1NC(=O)c1ccccc1C(=O)O | -15.4
CN1CCN(Cc2ccc(-c3cnc4[nH]cc(-c5ccc6[nH]ccc6c5)c4c3)cc2)CC1 | 2.27

Set 3
Target: RNA binding protein fox-1 homolog 2, RRM domain, GST-SBP tag (RBFOX2, Homo sapiens, UniProt O43251-10, residues 100-194)
Method: RNA Bind-n-Seq
Form: RNA
Sample: in vitro
Tested at: 365 nM
Notes: natural RNA segment, single round, ends assumed
Baseline: no-protein control
Direction: higher = stronger binding
All sequences stand within: GGGAGUUCUACAGUCCGACGAUC … UGGAAUUCUCGGGUGCCAA
Construct (chain): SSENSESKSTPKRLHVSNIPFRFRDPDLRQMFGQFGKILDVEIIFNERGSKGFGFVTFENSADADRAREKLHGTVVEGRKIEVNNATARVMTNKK
Sequence | RBNS enrichment (R)
CCCUGCCUGGACAUUGCAUUUCCCCAUUUAUGGUGCUCCGUAUUCUGGCAUUAUGCAGCAGCCUCACACACCUGUCCUCUCCUUCUUCAUGUCCUACAGUUCUGCUAUCA | 0.8
UAAAAACUGAACACGAUAACACUUACUCUUAAAUCAAGCAUCAACACUUUUUCCCUGUUAGAAUUCUUUGCAUUUUUGUGUUUGUAACAGAAACGCCUUAAGACACUAUG | 0.818
UCCCAGCUCCACUGGCCCAAGUCUGAGCCGGAGGCCCUUGUUUUGGGGGCGGGGGGAGAGUUGGAUGUGAUUGCCCUUGAAGAACAAGGCUGACCUGAGAGGUUCCUGGC | 0.462
CGCAGCCGUGGACGAUUCUCCAGGACUCUUUUUUUACCUUGAGCACUUGCCUCGUGAGACUUCAUAGAACAGUGGUUUACUGUCCCCCCCUUCUCACCUCCUCAUUCUCU | 0.505
UUAACACAUUUGCAAGAUGAUUGACUCAAUCUUUGCCUAAUCCAAUGAGUGUUACAGAGAGCUUGCUGUGACUAGAACCAUAAAUCUUAAAGGGGGUAUGUGAUAAUAGA | 0.641
ACAGCCUGCUUCUAAUACCUUCUUUCCCUACCACCUAGUUCCAAAUGGAACCAACAAGUUGAGUGCAUCUCUGUUGGGUGUUUUGUGUUGAGACUGGCUGAAGUGAAGAA | 0.585
AGGUUGUUUAAAAAGUCAGAAUUUCUGAGUACCAUUUCAGUCUGGAGGCUUUUAGCUGAGUCCAGGUAUAAAUUAGCCAUAAACAGUCAAUGACCCACAGUAGUCUUUAG | 0.297
CUGAGAUCCAGCAUCCAGCUGUGGCCAGGGAUCCACCACCUCUGUGUACACCCUCACCCGCUGCUGUCCUGCCCUCUGCCAGUGGCCCCAUCAACCCAGGCCUGGUCUUU | 0.195

Set 4
Target: Replicase polyprotein 1ab, main protease (rep, Severe acute respiratory syndrome coronavirus 2, UniProt P0DTD1)
Read-out: enzyme activity
Mode: inhibitor
Tested at: 20 µM
Notes: hit confirmation
SMILES | inhibition
COc1ccc(NC(=O)CC2Sc3ncnn3C2=O)cc1 (stereo not shown) | 50.4%
CCCCCCNC(=O)n1cc(F)c(=O)[nH]c1=O | 111%
CN1CCN(C2=C(Cl)C(=O)N(c3ccc(Cl)c(Cl)c3)C2=O)CC1 | 110%

Set 5
Target: Centromere-binding protein 1, full length, His-tagged (CBF1, Saccharomyces cerevisiae, UniProt P17106, residues 1-351)
UniProt P17106, sequence (whole entry, looked up): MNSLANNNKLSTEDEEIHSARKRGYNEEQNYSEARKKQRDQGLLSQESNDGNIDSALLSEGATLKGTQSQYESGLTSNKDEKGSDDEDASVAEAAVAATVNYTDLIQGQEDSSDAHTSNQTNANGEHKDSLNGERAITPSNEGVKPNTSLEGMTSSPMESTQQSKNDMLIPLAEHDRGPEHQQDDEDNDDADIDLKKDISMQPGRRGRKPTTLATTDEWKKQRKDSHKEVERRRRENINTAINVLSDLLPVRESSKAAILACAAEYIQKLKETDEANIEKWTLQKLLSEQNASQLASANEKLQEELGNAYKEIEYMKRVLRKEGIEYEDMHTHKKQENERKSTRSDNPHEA
Method: competition protein-binding microarray
Form: double-stranded DNA, one strand shown
Sample: in vitro
Tested at: 2 µM
Notes: whole 60-bp probe, lowest competitor level
Added: Pho4 competitor, 0.05 µM
Direction: higher = stronger binding
All sequences stand within: … GTCTTGATTCGCTTGACGCTGCTG
Sequence | fluorescence intensity
CTTTCCCGATCTTGTCACCCTACTTTAGCACATTTG | 70 a.u.
GATTGGGAAATCTCTAATGTGACAGTCCATACTTGT | 80.7 a.u.
CGTCCTAGTGATTGCAATGTGGGTGCCATGAGGAAG | 104 a.u.
CGTCCTAGTGATTGGGACGTGGGTGCCATGAGGAAG | 74.6 a.u.
GGCCACCAAAGTCCACACGTTGCGCTTGCCTTTTTG | 74 a.u.
CAGGCATAGCCCCGTCACGTTCTACGATAAGAACTT | 321 a.u.
ACCGGTTGATGTACTAACGTGACGAACAGTTTCATC | 387 a.u.
ACCTCCTCTTCAGTACTAAATCTACCAATACCAAAT | 79 a.u.

Set 6
Cell line: HEK-293T/ACE2
Read-out: pseudovirus infection
Organism: VSV pseudotyped with SARS-CoV-2 spike
Tested at: 10 µM
Time: 16 h
Baseline: vehicle-treated
SMILES | GFP-positive cells
C[C@@H](NCCCc1cccc(C(F)(F)F)c1)c1cccc2ccccc12 | 23.7%
CC(C)c1ccc2oc3nc(N)c(C(=O)O)cc3c(=O)c2c1 | 67.8%
CC(=O)O[C@H]1C[C@@H]2CC[C@@H]3[C@H](CC[C@@]4(C)[C@H]3C[C@H]([N+]3(C)CCCCC3)[C@@H]4OC(C)=O)[C@@]2(C)C[C@@H]1N1CCCCC1 | 72.8%

A few entries again (set 2):
SMILES | inhibition [%]
O=S(=O)(O)CCS | 25.4
CC(C)N(CCCNC(=O)Nc1ccc(C(C)(C)C)cc1)C[C@H]1O[C@@H](n2ccc3c(N)ncnc32)[C@H](O)[C@@H]1O | 1.78
C[C@](O)(COc1ccc(C#N)cc1)C(=O)Nc1ccc(C#N)c(C(F)(F)F)c1 | -4.84
O=C1NCN(c2ccccc2)C12CCN(CCCC(c1ccc(F)cc1)c1ccc(F)cc1)CC2 | 0.32
